Assay results from different studies.
Parts stem from different laboratories: compare values within a part only. Changes are numbered by the printed parent chain.

Set 1
Target: CREB5, bZIP domain (human)
Method: DHFR protein complementation
Medium: yeast
Setting: single substitutions, most at no-binding floor
Relative to: wild-type JUN-FOS pair
Direction: higher = stronger binding
Parent: JUN, bZIP domain (human); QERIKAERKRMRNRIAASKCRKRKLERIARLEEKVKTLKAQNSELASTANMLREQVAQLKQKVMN; partner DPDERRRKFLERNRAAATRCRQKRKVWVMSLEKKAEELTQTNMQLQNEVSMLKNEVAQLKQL
Substitution | binding fitness
T37P | -1.4 natural log
R30T | -0.126 natural log
I28R | -0.326 natural log
E44A | -0.355 natural log
R30G | -0.267 natural log
A57T | -0.364 natural log
M51I | -0.333 natural log
V35W | -1.24 natural log
V56W | -0.97 natural log
L38P | -1.31 natural log
R30A | -0.0164 natural log
E32T | -0.516 natural log
E54N | -0.431 natural log
S43R | -0.194 natural log
V35C | -0.285 natural log
I28E | -0.381 natural log
V56G | -1.28 natural log
A46S | -0.308 natural log
E32S | -0.526 natural log
K39H | -0.329 natural log
I28W | -0.348 natural log
Q58S | -0.18 natural log
T48K | -0.295 natural log

Set 2
Target: ABI1, truncated, D143A, DHFR fusion (Arabidopsis thaliana)
Method: DHFR PCA, deep sequencing
Medium: yeast
Setting: methotrexate growth selection, single substitutions
Added: (+)-ABA 0.0091 µM
Relative to: wild-type fitted maximum
Direction: higher = stronger binding
Parent: PYL1, truncated, DHFR fusion (Arabidopsis thaliana); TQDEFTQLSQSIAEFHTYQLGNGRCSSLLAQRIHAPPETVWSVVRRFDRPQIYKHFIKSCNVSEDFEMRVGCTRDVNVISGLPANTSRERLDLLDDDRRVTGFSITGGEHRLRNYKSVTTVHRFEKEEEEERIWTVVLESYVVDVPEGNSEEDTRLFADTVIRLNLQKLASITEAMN; partner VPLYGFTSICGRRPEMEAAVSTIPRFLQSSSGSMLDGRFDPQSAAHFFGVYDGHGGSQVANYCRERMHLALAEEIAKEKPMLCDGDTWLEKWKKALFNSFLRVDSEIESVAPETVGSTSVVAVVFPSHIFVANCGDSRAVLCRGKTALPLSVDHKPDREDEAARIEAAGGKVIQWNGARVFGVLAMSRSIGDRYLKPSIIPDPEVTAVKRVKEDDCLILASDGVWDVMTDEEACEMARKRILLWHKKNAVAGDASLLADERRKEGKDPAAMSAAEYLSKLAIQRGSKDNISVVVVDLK
Substitution | relative binding score
S11H | 14.1%
G21E | 41.9%
Y53P | -7.16%
F103R | -3.7%
S26R | -0.312%
D65E | 11.1%
L156N | -0.205%
E130G | 33.5%
F15I | -1.86%
T120Q | -4.7%
E14A | 3.58%
G81S | 39.9%
H122Q | -5.16%
C72S | 21.2%
Q19W | 3.59%
H55M | 18.4%

Set 3
Target: CCNB3, cyclin fold, Cln2 fusion (human)
Method: yeast growth competition, sequencing
Medium: yeast
Setting: strong parent motif
Relative to: not given
Direction: higher = stronger binding
Parent: PKN2 docking peptide (human); VSAVRKLDFSDTM
Substitution | normalised enrichment score
R5Y | 0.0809
K6Q | 0.41
D8E | 1.05
L7R | -0.138
T12V | 0.993
A3N | 0.0936
K6Y | 0.151
V4F | 1.03
D8A | 0.574
L7C | 0.0298
V4N | 0.45
V4G | -0.0266
D11T | 1.69
A3I | 1.73
T12L | 1.51
D11Y | 1.3
T12C | 2.14
A3L | 0.9
D8C | 0.891
K6R | 1.5
D11R | 1.65
A3S | 0.42
F9H | 0.154
S10W | 0.595
T12A | 2.1

Set 4
Target: Histone acetyltransferase KAT6A, both winged helices, GST fusion (KAT6A, Homo sapiens, UniProt Q92794, residues 1-181)
Method: protein binding microarray
Form: double-stranded DNA, one strand shown
Medium: in vitro
Concentration: not given
Setting: 8-mer, flanks averaged, mean of 2 arrays, mostly near background
Relative to: not given
Direction: higher = stronger binding
Target sequence (chain): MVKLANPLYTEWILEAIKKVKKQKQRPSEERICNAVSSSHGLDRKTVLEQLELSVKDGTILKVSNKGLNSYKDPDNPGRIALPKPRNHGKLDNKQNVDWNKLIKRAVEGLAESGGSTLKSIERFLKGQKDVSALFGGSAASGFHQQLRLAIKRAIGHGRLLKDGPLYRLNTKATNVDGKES
Strand | E-score
TATCTGCA | -0.146
CGAGAACA | 0.0244
AGGACGTC | -0.0982
GTAACGAC | 0.0386
CGAGTAGA | 0.0145
GCTGTTAC | 0.163
CACCTGCA | -0.208
AGGCACCC | -0.039
CCTCCTTA | -0.175
AGTAGGCG | 0.0013
CGACCCGC | 0.247
CCAGGATA | -0.183
AAACGCAA | 0.0853
AGAGGTTA | -0.0698
GGGTTCTA | -0.14
ACTTAGAT | -0.0281
CGCCTGGC | 0.171
ACCTTATG | -0.128
CTCAGATC | -0.195
CGAACGGA | 0.191
GACGTGGC | -0.0331
GTTTCGAA | 0.17
ACTTTTTA | -0.129
AGAATCAA | -0.149
CTATAGTC | -0.0917

Set 5
Target: PABPC1L2, full length, GST fusion (mouse, UniProt A0ABA7IW68)
Method: RNAcompete
Form: RNA
Medium: in vitro
Concentration: 20 nM
Setting: 7-mer, probes averaged, single round
Relative to: mean of 7-mers
Direction: higher = stronger binding
Target sequence (chain): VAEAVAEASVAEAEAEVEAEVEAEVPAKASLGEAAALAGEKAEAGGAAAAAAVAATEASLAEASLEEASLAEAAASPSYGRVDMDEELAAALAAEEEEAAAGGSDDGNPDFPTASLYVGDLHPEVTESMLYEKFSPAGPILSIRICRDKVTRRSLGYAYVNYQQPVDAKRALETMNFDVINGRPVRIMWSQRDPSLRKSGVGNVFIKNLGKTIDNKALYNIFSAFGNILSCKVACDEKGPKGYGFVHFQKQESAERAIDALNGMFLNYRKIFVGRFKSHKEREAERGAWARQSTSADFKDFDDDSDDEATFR
Strand | 7-mer Z-score
UUCAGCC | -0.371
GGGUAAC | 0.151
GGUCCUA | -0.0826
AUCGACG | -0.00652
AAAUAGC | 1.9
GUCCAAU | -0.15
CGCUGCA | -0.275
UCAUGCU | -0.195
CUAUGUG | -0.151
UAACCUC | -0.258
CAGCUGA | -0.117
UAGGUCC | -0.171
AGACAAA | 1.42
UAUAGCA | 0.00798
AACCCAA | 0.0732
UGCUACA | -0.199
AUAAUCG | -0.0591
AAAUACG | 1.98

Set 6
Target: Prothrombin, mature alpha-thrombin (F2, Homo sapiens, UniProt P00734)
Method: aptamer microarray, sandwich
Form: DNA with 2'F-ANA
Medium: in vitro
Concentration: 200 nM
Setting: whole 15-mer aptamer, many near background
Added: Cy3 exosite-II aptamer, 400 nM
Direction: higher = stronger binding
Strand: GGTTGGTGTGGTTGG
Modification | mean fluorescence intensity
2'F-ANA at 1 4 6 7 11 15 | 87.6 a.u.
2'F-ANA at 2 4 5 6 10 11 12 | 168 a.u.
2'F-ANA at 2 5 6 10 13 14 | 100 a.u.
2'F-ANA at 1 4 5 11 12 13 15 | 65.8 a.u.
2'F-ANA at 1 2 5 6 12 14 15 | 48.9 a.u.
2'F-ANA at 1 3 5 8 9 10 12 14 | 46.9 a.u.
2'F-ANA at 1 3 5 8 9 10 13 14 15 | 49.1 a.u.
2'F-ANA at 1 3 4 5 8 12 14 15 | 48.5 a.u.
2'F-ANA at 1 2 4 6 7 8 12 15 | 279 a.u.
2'F-ANA at 2 8 9 10 11 12 13 15 | 146 a.u.
2'F-ANA at 1 2 6 7 10 | 51.3 a.u.
2'F-ANA at 2 4 8 13 14 | 104 a.u.
2'F-ANA at 1 2 7 8 10 11 12 13 | 61.1 a.u.
2'F-ANA at 1 2 4 9 10 11 12 | 68 a.u.
2'F-ANA at 2 3 4 6 9 11 13 14 | 182 a.u.
2'F-ANA at 3 4 6 8 12 14 | 353 a.u.

Further values, each from its own experiment
Substance | target | assay | test system | conditions | scale | measurement | value
PhoQ, residues 284 288 289 292 302 303 SSTLSG | PhoP, residues 12 14 15 18 19 GQALL (Escherichia coli, UniProt P23836) | Sort-seq, measured: YFP reporter | E. coli | PhoQ-PhoP variant library, added: 10 µM Mg2+ | relative to: high Mg2+ state, higher = stronger signaling | fold induction | 11

Repeated from above (set 4):
Strand | E-score
CACCTGCA | -0.208
AGGCACCC | -0.039
CCTCCTTA | -0.175
AGTAGGCG | 0.0013
CGACCCGC | 0.247
CCAGGATA | -0.183
AAACGCAA | 0.0853
AGAGGTTA | -0.0698
GGGTTCTA | -0.14
ACTTAGAT | -0.0281
CGCCTGGC | 0.171
ACCTTATG | -0.128
CTCAGATC | -0.195
CGAACGGA | 0.191
GACGTGGC | -0.0331
